Measured values from different studies.
4'-phosphopantetheinyl transferase PptT: 4'-phosphopantetheinyl transferase PptT (Mycobacterium tuberculosis, UniProt O33336)
UniProt O33336, sequence (whole entry, looked up): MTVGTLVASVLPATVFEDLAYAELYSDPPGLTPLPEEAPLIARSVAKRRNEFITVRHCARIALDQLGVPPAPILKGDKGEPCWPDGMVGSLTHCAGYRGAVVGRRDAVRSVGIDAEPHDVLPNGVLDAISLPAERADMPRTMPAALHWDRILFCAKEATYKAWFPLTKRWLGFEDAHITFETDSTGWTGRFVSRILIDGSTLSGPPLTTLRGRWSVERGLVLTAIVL
UniProt Q05655, sequence (whole entry, looked up): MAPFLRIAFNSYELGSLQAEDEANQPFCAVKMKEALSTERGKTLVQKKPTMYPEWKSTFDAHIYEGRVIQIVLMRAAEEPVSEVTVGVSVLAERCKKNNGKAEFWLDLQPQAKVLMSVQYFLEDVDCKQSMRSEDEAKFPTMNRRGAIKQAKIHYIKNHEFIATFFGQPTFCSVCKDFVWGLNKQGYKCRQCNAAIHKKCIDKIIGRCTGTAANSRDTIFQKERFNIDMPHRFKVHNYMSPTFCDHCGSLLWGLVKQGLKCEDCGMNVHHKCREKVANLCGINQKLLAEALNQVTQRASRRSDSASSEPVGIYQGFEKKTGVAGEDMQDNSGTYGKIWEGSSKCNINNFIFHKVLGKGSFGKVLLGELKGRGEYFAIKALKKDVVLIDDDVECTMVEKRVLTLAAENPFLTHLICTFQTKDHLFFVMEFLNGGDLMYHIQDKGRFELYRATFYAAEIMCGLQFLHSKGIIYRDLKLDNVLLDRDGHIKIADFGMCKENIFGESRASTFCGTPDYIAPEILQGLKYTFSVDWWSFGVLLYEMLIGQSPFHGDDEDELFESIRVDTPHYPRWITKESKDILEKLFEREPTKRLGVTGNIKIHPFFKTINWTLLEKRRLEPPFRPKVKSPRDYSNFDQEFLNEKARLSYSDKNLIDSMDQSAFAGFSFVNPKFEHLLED
UniProt P34972, sequence (whole entry, looked up): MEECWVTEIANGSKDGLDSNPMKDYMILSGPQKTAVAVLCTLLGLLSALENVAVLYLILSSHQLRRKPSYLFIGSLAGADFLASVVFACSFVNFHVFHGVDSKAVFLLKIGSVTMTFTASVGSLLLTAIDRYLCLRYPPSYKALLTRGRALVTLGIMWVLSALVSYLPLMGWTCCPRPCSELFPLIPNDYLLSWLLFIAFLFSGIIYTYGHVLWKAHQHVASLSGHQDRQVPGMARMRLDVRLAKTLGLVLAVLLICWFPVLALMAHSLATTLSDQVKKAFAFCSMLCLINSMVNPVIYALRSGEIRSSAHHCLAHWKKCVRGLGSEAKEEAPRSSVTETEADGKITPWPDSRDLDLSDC
UniProt P41145, sequence (whole entry, looked up): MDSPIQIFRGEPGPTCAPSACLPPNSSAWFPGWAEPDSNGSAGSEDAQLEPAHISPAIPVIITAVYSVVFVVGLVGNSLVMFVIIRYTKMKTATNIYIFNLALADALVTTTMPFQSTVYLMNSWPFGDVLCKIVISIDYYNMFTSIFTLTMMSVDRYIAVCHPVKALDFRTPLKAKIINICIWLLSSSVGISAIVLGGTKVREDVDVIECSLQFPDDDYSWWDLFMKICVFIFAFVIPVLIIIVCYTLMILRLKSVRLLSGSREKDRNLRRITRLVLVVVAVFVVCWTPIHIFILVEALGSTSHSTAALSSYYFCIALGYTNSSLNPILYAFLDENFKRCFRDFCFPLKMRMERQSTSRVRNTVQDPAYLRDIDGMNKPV
UniProt O00329, sequence (whole entry, looked up): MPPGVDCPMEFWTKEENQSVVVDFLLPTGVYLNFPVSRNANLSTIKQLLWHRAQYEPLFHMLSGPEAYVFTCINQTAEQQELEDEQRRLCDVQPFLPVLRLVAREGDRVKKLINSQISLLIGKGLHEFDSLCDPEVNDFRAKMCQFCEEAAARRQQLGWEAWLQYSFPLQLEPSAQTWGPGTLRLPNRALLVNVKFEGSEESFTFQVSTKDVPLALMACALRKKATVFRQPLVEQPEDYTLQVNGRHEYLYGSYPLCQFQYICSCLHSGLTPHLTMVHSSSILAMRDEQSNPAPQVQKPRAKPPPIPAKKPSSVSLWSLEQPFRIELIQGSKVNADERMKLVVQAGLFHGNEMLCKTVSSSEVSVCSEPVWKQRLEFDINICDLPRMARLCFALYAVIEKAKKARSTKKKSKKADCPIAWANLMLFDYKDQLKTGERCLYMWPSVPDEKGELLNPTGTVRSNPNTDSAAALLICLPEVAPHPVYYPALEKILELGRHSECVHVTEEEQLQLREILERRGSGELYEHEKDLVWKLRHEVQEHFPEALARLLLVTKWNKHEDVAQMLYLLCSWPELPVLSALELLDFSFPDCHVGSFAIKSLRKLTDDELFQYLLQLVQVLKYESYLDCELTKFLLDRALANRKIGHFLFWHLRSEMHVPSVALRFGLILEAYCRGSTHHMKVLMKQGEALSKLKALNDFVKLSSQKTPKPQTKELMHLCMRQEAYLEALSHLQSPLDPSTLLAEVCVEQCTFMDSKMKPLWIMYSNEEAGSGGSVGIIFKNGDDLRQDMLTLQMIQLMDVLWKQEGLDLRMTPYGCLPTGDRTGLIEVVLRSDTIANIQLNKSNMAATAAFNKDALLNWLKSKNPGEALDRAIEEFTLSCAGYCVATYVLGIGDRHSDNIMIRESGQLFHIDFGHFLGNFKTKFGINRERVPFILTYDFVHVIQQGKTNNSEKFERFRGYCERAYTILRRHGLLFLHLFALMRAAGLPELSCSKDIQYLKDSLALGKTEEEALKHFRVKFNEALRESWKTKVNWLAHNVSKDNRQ
UniProt P36894, sequence (whole entry, looked up): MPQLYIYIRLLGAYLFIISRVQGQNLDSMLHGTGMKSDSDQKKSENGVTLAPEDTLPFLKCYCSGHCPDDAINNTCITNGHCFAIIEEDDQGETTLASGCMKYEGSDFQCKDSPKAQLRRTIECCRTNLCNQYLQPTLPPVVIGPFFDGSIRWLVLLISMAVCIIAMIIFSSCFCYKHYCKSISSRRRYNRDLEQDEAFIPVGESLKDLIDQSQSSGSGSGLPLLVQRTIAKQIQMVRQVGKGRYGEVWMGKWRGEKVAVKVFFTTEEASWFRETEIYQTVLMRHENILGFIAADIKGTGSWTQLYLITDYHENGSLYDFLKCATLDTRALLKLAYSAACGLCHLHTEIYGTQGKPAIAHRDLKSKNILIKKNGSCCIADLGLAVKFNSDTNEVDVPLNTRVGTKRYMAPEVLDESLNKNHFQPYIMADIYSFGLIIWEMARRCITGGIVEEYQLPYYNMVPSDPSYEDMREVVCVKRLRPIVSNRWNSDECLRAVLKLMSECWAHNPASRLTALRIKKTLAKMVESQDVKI
UniProt P21918, sequence (whole entry, looked up): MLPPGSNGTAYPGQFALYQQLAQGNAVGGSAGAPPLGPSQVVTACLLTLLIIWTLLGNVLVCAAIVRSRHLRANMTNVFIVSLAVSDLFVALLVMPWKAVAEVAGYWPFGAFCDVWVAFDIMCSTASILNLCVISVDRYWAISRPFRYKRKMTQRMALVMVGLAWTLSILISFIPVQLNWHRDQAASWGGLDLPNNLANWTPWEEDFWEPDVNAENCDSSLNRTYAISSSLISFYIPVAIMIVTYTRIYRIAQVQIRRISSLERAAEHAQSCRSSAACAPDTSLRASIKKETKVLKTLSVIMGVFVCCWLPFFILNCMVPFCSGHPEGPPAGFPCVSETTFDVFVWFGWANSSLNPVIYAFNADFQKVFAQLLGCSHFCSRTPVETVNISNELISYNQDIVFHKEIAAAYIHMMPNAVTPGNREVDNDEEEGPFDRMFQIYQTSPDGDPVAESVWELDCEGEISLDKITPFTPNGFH

With `O=c1c2cc(Cl)ccc2[nH]c(=S)n1Cc1ccccn1` the IC50 was 23.2 µM (4'-phosphopantetheinyl transferase PptT; enzyme activity, inhibitor, FP).
With `Nc1ncc(-c2nc(N3CCOCC3)nc(N3CCOCC3)n2)c(C(F)F)n1` the remaining binding was 55% (FLT3 (Homo sapiens, UniProt P36888, D835H); binding, competition with immobilised ligand; 10 µM).
For `COc1ncccc1-c1cnn2ccc(N3CCN(C(=O)OC(C)C)CC3)nc12`, the remaining binding was 83% (PRKCD (Homo sapiens, UniProt Q05655); binding, competition with immobilised ligand; 1 µM).
With `CCN(CC)CCCC[C@H](NC(=O)[C@H](CC(C)C)NC(=O)[C@H](C)NC(=O)[C@H](Cc1ccccc1)NC(=O)c1ccc(C(C)(C)C)cc1)C(=O)N[C@@H](CO)C(=O)OC` the ΔTm was 0.64 °C (PHIP, BD2 (Homo sapiens, UniProt Q8WWQ0); thermal stability, DSF; 25 µM).
For `O=C(OCc1cc2[nH]c(=S)n(Cc3cncnc3)c(=O)c2cc1Cl)Oc1ccccc1`, the IC50 was 17.7 µM (4'-phosphopantetheinyl transferase PptT; enzyme activity, inhibitor, FP).
For `c1cncc([C@@H]2CCCN2)c1`, the inhibition was 1.45% (DRD5 (Homo sapiens, UniProt P21918); ligand displacement; 50 µM).
For `Cc1nn(C)cc1-c1nc2c(N3CCN(Cc4ccc(Cl)cc4)CC3)c(Cl)cnc2[nH]1`, the remaining binding was 81% (PIK3CD (Homo sapiens, UniProt O00329); binding, competition with immobilised ligand; 1 µM).
`[2H]c1c([2H])c([C@]2([2H])CCCN2C(=O)C(C)(C)Oc2ccc3cn[nH]c3c2)c([2H])c([2H])c1C([2H])([2H])[2H]` has a remaining binding of 65% (BMPR1A (Homo sapiens, UniProt P36894); binding, competition with immobilised ligand; 1 µM).
`CC(C)CC(=O)OC[C@H]1O[C@@](C#N)(c2ccc3c(N)ncnn23)[C@H](O)[C@@H]1O` gave an inhibition of 18% (OPRK1 (Homo sapiens, UniProt P41145); cell-free assay; 20 µM).
`CCCCC/C=C\C/C=C\C/C=C\C/C=C\CCCC(=O)NCCO` has an Emax of 40% (CNR2 (Homo sapiens, UniProt P34972); β-arrestin recruitment, agonist).

Some of these lines once more:
`CC(C)CC(=O)OC[C@H]1O[C@@](C#N)(c2ccc3c(N)ncnn23)[C@H](O)[C@@H]1O` gave an inhibition of 18% (OPRK1 (Homo sapiens, UniProt P41145); cell-free assay; 20 µM).
`CCCCC/C=C\C/C=C\C/C=C\C/C=C\CCCC(=O)NCCO` has an Emax of 40% (CNR2 (Homo sapiens, UniProt P34972); β-arrestin recruitment, agonist).
